Assay results collected from several papers.
Every numbered part comes from another study and shows a few of its results, in no order.

Sample 1
Target: Interferon regulatory factor 7, full length, phosphomimetic (IRF7, Homo sapiens, UniProt Q92985, residues 1-503, S101K/S471D/S472D/S475D/S476D/S477D/S483D/S484D/S487D)
Technique: protein-binding microarray
Molecule type: double-stranded DNA, one strand shown
Matrix: in vitro
Concentration: 250 nM
Notes: 60-bp whole probe
Added: salmon DNA 0.4 mg/ml
Baseline: random background probes
Direction: higher = stronger binding
All sequences stand within: GCCTAGCAC … GTCTTGATTCGCTTGACGCTGCTG
Target sequence (chain): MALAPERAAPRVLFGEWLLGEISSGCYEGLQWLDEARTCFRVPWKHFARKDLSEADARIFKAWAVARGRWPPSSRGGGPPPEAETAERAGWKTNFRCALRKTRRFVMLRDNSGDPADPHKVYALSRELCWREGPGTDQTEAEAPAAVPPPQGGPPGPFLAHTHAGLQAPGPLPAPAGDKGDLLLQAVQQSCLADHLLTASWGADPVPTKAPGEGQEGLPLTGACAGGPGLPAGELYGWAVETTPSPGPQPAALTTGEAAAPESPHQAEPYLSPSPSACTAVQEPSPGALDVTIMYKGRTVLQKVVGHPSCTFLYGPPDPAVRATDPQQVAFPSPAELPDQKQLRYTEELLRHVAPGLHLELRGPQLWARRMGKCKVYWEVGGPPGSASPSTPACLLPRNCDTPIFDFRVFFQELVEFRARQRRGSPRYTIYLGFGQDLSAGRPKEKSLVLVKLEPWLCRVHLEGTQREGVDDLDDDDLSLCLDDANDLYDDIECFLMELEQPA
Sequence | log fluorescence
GACGGTTTCGGGACGGGGGACGTGCTA | 6.8 z-score
GACGGTCTCGGACTAGGGACGTGCTAG | 0.276 z-score
TTAGGTTCCGGATTCGGTTAGTGCTAG | 6.54 z-score
GACGGCTCCCTTTTCCTGACGTGCTAG | 0.289 z-score
TTAGGTCTCCTTATGCTTTAGTGCTAG | -0.0327 z-score
GACGTACTGCTTCTCCTGACGTGCTAG | 0.313 z-score
TACGATATCGGGTATCGAGACGTGCTA | 0.347 z-score
TCATACTTCTGTTTTTGACTGTGCTAG | 0.617 z-score
TTAGGTTTCCTGTTCCTTTAGTGCTAG | 3.01 z-score
TTAGAACTGAGAATCGATTAGTGCTAG | 0.133 z-score
GACGGTATCGGGACTGAGGACGTGCTA | -0.4 z-score
AGATATTTAGAACTTCTCCACGTGCTA | -0.31 z-score
ATGTTTGTCACTCTCAGAATGTGCTAG | 0.736 z-score
TTAGGTTTCCTTATCCATTAGTGCTAG | 2.89 z-score
TTAGGTCTCGGTATCCGTTAGTGCTAG | 2.9 z-score
GACGGTTTCGGGTATCGGGACGTGCTA | 7.28 z-score
CTATTTTTCCCCTGCACTCAGTGCTAG | 2.53 z-score
GACGAACTGCTTATCCTGACGTGCTAG | -0.339 z-score
TTAGGTATCCTACTGCTTTTGTGCTAG | -0.16 z-score
GACGGTATCCTTCGCCTGACGTGCTAG | -0.324 z-score
GACGATTTCGGTTATCGAGACGTGCTA | 1.59 z-score

Sample 2
Target: Prothrombin, mature alpha-thrombin (F2, Homo sapiens, UniProt P00734)
Technique: aptamer microarray, sandwich
Molecule type: DNA with 2'F-ANA
Matrix: in vitro
Concentration: 200 nM
Notes: whole 15-mer aptamer, many near background
Added: Cy3 exosite-II aptamer, 400 nM
Direction: higher = stronger binding
Sequence: GGTTGGTGTGGTTGG
Modification | mean fluorescence intensity [a.u.]
2'F-ANA at 2 4 6 7 8 10 11 12 14 | 108
2'F-ANA at 1 2 5 7 8 10 12 14 | 43.7
2'F-ANA at 7 10 12 13 14 | 120
2'F-ANA at 3 4 5 6 10 11 13 15 | 52.7
2'F-ANA at 1 2 3 4 6 9 11 12 15 | 214
2'F-ANA at 4 7 8 9 12 13 14 15 | 101
2'F-ANA at 3 4 6 7 11 12 13 | 623
2'F-ANA at 1 3 4 5 7 10 11 13 | 49.3
2'F-ANA at 1 2 7 9 10 13 14 15 | 44.1
2'F-ANA at 7 9 11 15 | 456
2'F-ANA at 1 3 4 6 11 12 15 | 266
2'F-ANA at 1 3 5 6 7 10 12 13 14 15 | 50
2'F-ANA at 1 2 6 7 8 11 13 | 124
2'F-ANA at 1 2 3 5 7 8 | 68
2'F-ANA at 3 4 6 8 9 10 11 12 | 261
2'F-ANA at 1 3 4 5 7 8 9 10 11 12 13 | 50.2
2'F-ANA at 5 6 7 10 15 | 46.6
2'F-ANA at 2 5 8 9 10 11 14 15 | 59.2
2'F-ANA at 1 2 4 5 6 7 8 9 11 12 | 95.9
2'F-ANA at 2 3 5 7 8 10 11 14 | 49.2
2'F-ANA at 1 3 4 6 8 9 10 12 13 15 | 68.3
2'F-ANA at 1 5 6 7 9 11 14 | 48.3
2'F-ANA at 2 3 6 7 8 9 10 11 12 | 355

Sample 3
Target: RNA binding protein fox-1 homolog 2, RRM domain, GST-SBP tag (RBFOX2, Homo sapiens, UniProt O43251-10, residues 100-194)
Technique: RNA Bind-n-Seq
Molecule type: RNA
Matrix: in vitro
Concentration: 365 nM
Notes: natural RNA segment, single round, ends assumed
Baseline: no-protein control
Direction: higher = stronger binding
All sequences stand within: GGGAGUUCUACAGUCCGACGAUC … UGGAAUUCUCGGGUGCCAA
Target sequence (chain): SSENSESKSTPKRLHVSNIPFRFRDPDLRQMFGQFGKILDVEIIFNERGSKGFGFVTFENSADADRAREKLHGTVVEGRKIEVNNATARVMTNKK
Sequence | RBNS enrichment (R)
CAUAUGAAUAACCAUUUAUAUGUGUUUUGCUUAAAGUAUUCCAAUGCCUAUUUUCCAAGCACAGUUCUGCCCCCCGGUUGACUUUUAUGCCACGUGUGCUUCAUGAUGGA | 0.418
UUCCAGGAUCUAAAUGAAUGGGAAUUUAUAAUUCCUUUCAUAGACUCAAACCUGAAAGCAGAAAUUUUUAGUAGUUGAGUUGCUUUAAGUGAAUUUUAACAAAUAUGACA | 0.469
ACUAUUUGAUGUACAGAAUAGAAAACAUUUAAAUAUUGAAUUAGGCACUCAAAACCAACAAAGAGAAUGAGCAAUCAUCUUAAAGAUGGAACCUCUUAAAGGACAACUUU | 0.277
CCAGAGGAGCUUGUCUUCCUUGUCCUCUGUUCCCACCCUCCCCUGAACAGAACCCAGCCCAUAAGAGACAUUCUCAGAUGAAACUCUGUUUUCUUGCCCCAGUCAGGCUC | 0.587
UCUUUUCAGAGUUUCGAAGGAUUAAUGACUUCCUCAGCGCCCUUGCUGGCGGGCUGAGGGUGACAGUCACGUCCGUUUCUUCUGUAUUAGAAGGCUGCGGUGAUUCAAUU | 0.217
AAAAUUGCCUUACGUACAUUCCUUUUUCCUUUUUCUGCCUCUUCCCUCAAUAGUUGCCUUUUAGUGCUGUAAUAGUUAAAUCCUACAGCAUAAUCAAUAACUCGCAUAUG | 0.578
CUUACUGGGGAAGAGGAAGGACCAUUAGCACACCAUCAUGAUGUCAGAUGACAAAAUGGAAGCCAAGACACCUUGAAGGUGACUUUCUAGGAAGGUCUUAAGCAUGUAAU | 3.2
AGACCUGAAUGCUCUAUUUGCCCAAUGCUUCCAGACUCUUAGCUGUUCUGCCCAGCCCCCGUCCCGCUCCCACCUAAAGCCUGAGUUGGCUGAGCCAAAUGCCCAGCACU | 0.556
CACCACUGCAAACCCCCAAAUUGUAUGGAAGCCCCACACAGAUAGGGCCAAGCUAUAGAGGCAUGAUCAAUGUCUCCACCUCAUCAGACAUGGACCAUAACUCUGCUAUA | 0.47
CGUAUAACCAUCCUUCGGCCAGCCCCGGUAGGCAGGGGAUGAGUCAUUCCAGGUCGGCAUCCUCCGGCAAUGGCAGCUGACCCUAUAUGGCUCUGUGUGGAGUGCAGUAG | 0.206
UUACCCCCAGCUCAAGAUGGACAGGGUUCUUCUGGUCAUCUCCCUUCCACCUCUUCCACCCUCAUGGAUGCCUUCCAGAAGCUGUCUCCAACCAUGCACACCACAGAGAG | 0.618
AAAUCAUGCCAGCUAAUCAUGUCAAGUUCACUGCCUGUCAGAUUGUUGAUAUAUACCUUCUGUAAAUAACUUUUUUUGAGAAGGAAAUAAAAUCAGCUGGAACUGAACCC | 0.213

Sample 4
Target: PABPC1L2, full length, GST fusion (mouse, UniProt A0ABA7IW68)
Technique: RNAcompete
Molecule type: RNA
Matrix: in vitro
Concentration: 20 nM
Notes: 7-mer, probes averaged, single round
Baseline: mean of 7-mers
Direction: higher = stronger binding
Residues (chain): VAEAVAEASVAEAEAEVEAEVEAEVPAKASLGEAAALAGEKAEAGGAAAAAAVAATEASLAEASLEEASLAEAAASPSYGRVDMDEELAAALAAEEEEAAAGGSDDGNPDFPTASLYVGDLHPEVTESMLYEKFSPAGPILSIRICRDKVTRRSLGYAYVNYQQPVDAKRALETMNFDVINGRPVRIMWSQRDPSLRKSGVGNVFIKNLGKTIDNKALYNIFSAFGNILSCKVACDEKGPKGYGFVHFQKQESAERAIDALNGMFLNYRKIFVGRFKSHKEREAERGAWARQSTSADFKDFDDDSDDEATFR
Sequence | 7-mer Z-score
ACCAGUC | -0.208
GGCGUAA | 0.0696
GAAUAUG | -0.0373
UAAGCAC | -0.104
CCCAACA | -0.179
AUAGGAC | 0.253
GAAACGC | 0.0152
CCCGAAG | -0.171
ACCCAGA | -0.0246
UUUAGUG | 0.0352
UUUCAGA | -0.206
CCACCGC | -0.295
UACGUGC | -0.273
GGUCGUA | -0.255
ACCUGUG | -0.186
CGAUGCG | -0.106
AGCCCAU | -0.307
GGAGCAA | 0.427
UAAGGCA | 0.2
UGUUACA | -0.15
UUGUCGC | -0.456
GCGGGAA | 0.265
GUCGCCA | -0.358
GCUGAGU | -0.17
UGCUUUU | -0.132

Sample 5
Target: Histone acetyltransferase KAT6A, winged helix 1, GST fusion (KAT6A, Homo sapiens, UniProt Q92794, residues 1-85)
Technique: protein binding microarray
Molecule type: double-stranded DNA, one strand shown
Matrix: in vitro
Concentration: not given
Notes: 8-mer, flanks averaged, mean of 2 arrays, mostly near background
Baseline: not given
Direction: higher = stronger binding
Residues (chain): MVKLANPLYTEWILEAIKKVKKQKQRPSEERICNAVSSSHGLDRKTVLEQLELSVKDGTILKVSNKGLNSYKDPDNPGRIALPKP
Sequence | E-score
GGCGCTCA | 0.326
ATGCACAG | -0.131
AATTTATG | -0.142
AGTTATGG | -0.173
AACTCACT | -0.235
CGAGTATC | 0.0854
CTCTAGTC | -0.133
GTCGCGAC | 0.165
TAAGCCTA | -0.151
AAGGCCCA | -0.258
ACGATCGG | 0.147
TGCACAAA | -0.25
CTAGAGAA | -0.0371
ATAGCCGA | 0.134
CGGGTCGC | 0.416
GACGTTCC | -0.00512
ATGCATAC | -0.0686
CTTACGAA | -0.241
TCCCCTCA | -0.192
AGATCGCG | 0.203
AAAAGCCA | -0.0335
GTTTTCCA | -0.0107
GGTTACTA | 0.0727
AATGAAGC | -0.108
CATGGCCC | 0.0872

Some of these lines once more (sample 1):
Sequence | log fluorescence
GACGGCTCCCTTTTCCTGACGTGCTAG | 0.289 z-score
TTAGGTCTCCTTATGCTTTAGTGCTAG | -0.0327 z-score
GACGTACTGCTTCTCCTGACGTGCTAG | 0.313 z-score
TACGATATCGGGTATCGAGACGTGCTA | 0.347 z-score
TCATACTTCTGTTTTTGACTGTGCTAG | 0.617 z-score
TTAGGTTTCCTGTTCCTTTAGTGCTAG | 3.01 z-score
TTAGAACTGAGAATCGATTAGTGCTAG | 0.133 z-score
GACGGTATCGGGACTGAGGACGTGCTA | -0.4 z-score
AGATATTTAGAACTTCTCCACGTGCTA | -0.31 z-score
ATGTTTGTCACTCTCAGAATGTGCTAG | 0.736 z-score
TTAGGTTTCCTTATCCATTAGTGCTAG | 2.89 z-score
TTAGGTCTCGGTATCCGTTAGTGCTAG | 2.9 z-score
GACGGTTTCGGGTATCGGGACGTGCTA | 7.28 z-score
CTATTTTTCCCCTGCACTCAGTGCTAG | 2.53 z-score
GACGAACTGCTTATCCTGACGTGCTAG | -0.339 z-score
TTAGGTATCCTACTGCTTTTGTGCTAG | -0.16 z-score
GACGGTATCCTTCGCCTGACGTGCTAG | -0.324 z-score
